# Measurements from different studies.
# Every numbered part comes from another study and shows a few of its results, in no order.

# Series 1
# Target: Fragile X messenger ribonucleoprotein 1, C-terminal low-complexity region (Fmr1, Mus musculus, UniProt P35922)
# Method: RNA Bind-n-Seq
# Molecule type: RNA
# Medium: in vitro
# Concentration: 200 nM
# Notes: whole 134-nt RNA, ends assumed
# With: 150 mM KCl
# Baseline: input library
# Direction: higher = stronger binding
# All sequences stand within: GGGAGUUCUACAGUCCGACGAUC … UGGAAUUCUCGGGUGUCAAGG
Strand,log2 enrichment
UCAAGUCCUGUGCUACACAUCGUAUGUACCGAAUCGGGUUUUUGGGAGGGAGGGAAAGUAUUAUGUUACGCCGUUCGGAUCUGCACUUCC,1.12
UAACUUUAGAGGAGGAUCUGAUGGAUAUGGCAGUGGACGUGGAUUUGGGGAUGGCUAUAAUGGGUAUGGAGGAGGACCUGGAAGUGGCAA,0.236
UCCUGUGCUACACAUCGUAUGUACCGAAUCGGGGUUUUUGGGGAAAAAGGGGUUUGGGGAAAGUAUUAUGUUACGCCGUUCGGAUCUGCA,0.792
CAAGUCCUGUGCUACACAUCGUAUGUACCGAAUCGGCCCGGGCCCGGGCCCGGGGAAAGUAUUAUGUUACGCCGUUCGGAUCUGCACUUC,-0.844
CCUCAAGUCCUGUGCUACACAUCGUAUGUACCGAAUCGGGGAGGAGGAGGGGAAAGUAUUAUGUUACGCCGUUCGGAUCUGCACUUCCAG,0.513
AAGUCCUGUGCUACACAUCGUAUGUACCGAAUCGGGUUUUUGGGAAAGGGUUUGGGAAAGUAUUAUGUUACGCCGUUCGGAUCUGCACUU,0.472
AAGUCCUGUGCUACACAUCGUAUGUACCGAAUCGGGGAAAAAGGGGAGGGGUGGGGAAAGUAUUAUGUUACGCCGUUCGGAUCUGCACUU,0.78
CUCAAGUCCUGUGCUACACAUCGUAUGUACCGAAUCGGAAAGGUUUUUGGAGGAAAGUAUUAUGUUACGCCGUUCGGAUCUGCACUUCCA,-0.22
UCCUGUGCUACACAUCGUAUGUACCGAAUCGGGCCCCCCGGGCCCCCCGGGCCCCCCGGAAAGUAUUAUGUUACGCCGUUCGGAUCUGCA,-0.257
GCAGGAAGUAAAAACAAAUGGAAAUGCUUCGGAUAGUGGCAGGGGUGGGGGUUGCUAAGGAACGGGUGGGAUGGGAGUGGGUAAAGAGUU,0.143
CACAGACAACACGCACCCACACAGACACAGAGGGAAGGGGUUGGGAUGGGGACAGGGUGCACAGCAGGAAAGGGUAGGACCCCAGCCCCU,1.09
CAAGUCCUGUGCUACACAUCGUAUGUACCGAAUCGGGAAAGGGGAAAGGGAAAGGAAAGUAUUAUGUUACGCCGUUCGGAUCUGCACUUC,-0.097
UCCUGUGCUACACAUCGUAUGUACCGAAUCGGAAAAAAAGGUUUUUUUGGUUUUUUUGGAAAGUAUUAUGUUACGCCGUUCGGAUCUGCA,-0.741
GGUGAUGGUCAACAAGCCUCAACUGCCUCUGCUACAACUGCCAAGUUCCCCGCGUCCCACCCUCCUCUAGGUGCUCCAAGGGACCACCGG,-0.0977

# Series 2
# Target: RNA binding protein fox-1 homolog 2, RRM domain, GST-SBP tag (RBFOX2, Homo sapiens, UniProt O43251-10, residues 100-194)
# Method: RNA Bind-n-Seq
# Molecule type: RNA
# Medium: in vitro
# Concentration: 365 nM
# Notes: natural RNA segment, single round, ends assumed
# Baseline: no-protein control
# Direction: higher = stronger binding
# All sequences stand within: GGGAGUUCUACAGUCCGACGAUC … UGGAAUUCUCGGGUGCCAA
# Construct (chain): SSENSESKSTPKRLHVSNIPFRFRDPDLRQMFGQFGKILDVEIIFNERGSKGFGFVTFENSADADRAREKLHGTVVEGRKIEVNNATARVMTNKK
Strand,RBNS enrichment (R)
CCCACUUUGAAAUCUCACAGAAUCUUGCUGGUAAUGGUGACUUUAGAACUAGUAGACCCUUUUUCCCAGGCACUGACCCCCCACCUUUGUCUGUGUUGUGCCCAAGUGCC,0.361
GGGAGCCCCCAUGCACAGGAAGCCACAGGGUUCCUCUUGUUUCCCCCGCUAACUUCAGCCUCUCAUCUGCUGCUCCGGGCUGAGGGACUAGAGGACAUCUCGGUCGUUUG,0.462
AGCUAUUUCUAAAGUAAACAUUUUAUCUGUUACUUUUAACCAGAUAGGUGUCUUUGUCAUCCUUCUACUAUAAAUUGUUCUUUGCCAACCUGUACAGGUAGAUGAACCAG,0.305
ACUGGGGACCCGAGCCAGCCAGGCCAUGUUUGCAGGGAAGGAUGCCAAGCAGGGCCUGCCCUGACAGUUCCACUUUACUCCCAUAUUCUCCCCGUGCUCCUGGCGAGCCU,0.668
ACUGGUACAGUCCCAGCUCUGCUCUGGUGUAUGCGAUUUUUGAAAGACCUGUCUUCUGUGAGCUGUGCUCAUGUGCAGUGGAGCAGACCUGCUUCCGCCUGGAGGAGAGC,0.321
AGAGUGGGAGGCUGCAGCAGUAAGGUGGCUUUUUAUCAAAGGUUUUUAUAUAAAUUUCCCACGUUACGGGGCCUUGUUUUGCAUGCUGAUGAAGAACUACUUAAAACUAA,11.5
CCAAGUCAUCAAGGCCCCGCUCCUCUCCUCGGAAGGGUCCCCCACCCCCCGGCAGCUUGACACUGAAUCCAGUGUCAAUUUGGGGAGAAAGCAGUUUUGUCUUGGAAUUU,0.308
UAGAUACGUGAUGUCUGGUCAUGUAGUGAGGGCCUUGGGGGCUUGCCUUUGAAUGCUAUAGCAUAUUUAGUGUGAGGACUGGGGACCCAGUAAGAUUUAGAGAGCAAUAU,1.93
CCCCAUCAAUCCCUAAUUUAUUGAGAGUUUUUAGCAUGAAGGGUUGUUGAAUUUUGUCAAAGGCUUUUUCUGCAUCUAUUGAGAUAAUCAUGUGUUUUUUGUCUUUGGCU,5.63
AUAAAAGCCAACAAGAGAAACCAUCUCUGACUACCCCUUCCCCCCCUCCCCUUGGAAGUUCCCCAUUGUCACUGAGAACCACCAAAUUUGACUUUCACAUUUGGUCUCAG,0.387
GCUUUUUUGGGGUAAUUUGAAUUAAUUUUUUAAUGAUUGGGGUUCCAUUUGACUGUUUGCAUUGAGAUUGCAAUGUGCGCAAUUUUUUUUGUAGUUGUGGCAUCUUGUUG,0.987
GAAUAUGAGAAUUUGAUAUGUAAUUAUUUCACAAAUAUGAUCUUUUCAAUAACAAAAUAUCGUAAGUAGAAUGCUUUUGUGCCUUUGGAUACAAGAUUAAUCUUUAGAAA,0.601

# Series 3
# Target: Interferon regulatory factor 7, full length, phosphomimetic (IRF7, Homo sapiens, UniProt Q92985, residues 1-503, S101K/S471D/S472D/S475D/S476D/S477D/S483D/S484D/S487D)
# Sequence of UniProt Q92985 (whole entry, unmodified, looked up): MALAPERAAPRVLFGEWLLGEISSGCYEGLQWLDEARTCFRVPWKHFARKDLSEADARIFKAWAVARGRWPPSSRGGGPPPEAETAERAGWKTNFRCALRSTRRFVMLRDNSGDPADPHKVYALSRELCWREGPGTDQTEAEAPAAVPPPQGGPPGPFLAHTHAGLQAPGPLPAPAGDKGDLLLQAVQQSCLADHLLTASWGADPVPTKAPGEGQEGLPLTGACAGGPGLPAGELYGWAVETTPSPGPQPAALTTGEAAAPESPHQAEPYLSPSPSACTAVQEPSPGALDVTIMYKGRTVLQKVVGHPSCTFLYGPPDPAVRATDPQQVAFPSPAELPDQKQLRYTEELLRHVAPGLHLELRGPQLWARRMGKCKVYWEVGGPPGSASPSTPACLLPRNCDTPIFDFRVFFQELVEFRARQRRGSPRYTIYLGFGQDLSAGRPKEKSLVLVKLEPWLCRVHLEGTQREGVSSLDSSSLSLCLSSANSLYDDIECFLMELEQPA
# Method: protein-binding microarray
# Molecule type: double-stranded DNA, one strand shown
# Medium: in vitro
# Concentration: 250 nM
# Notes: 60-bp whole probe
# With: salmon DNA 0.4 mg/ml
# Baseline: random background probes
# Direction: higher = stronger binding
# All sequences stand within: GCCTAGCAC … GTCTTGATTCGCTTGACGCTGCTG
Strand,log fluorescence
TGAGGTATCCTTATCCTTTAGTGCTAG,-0.124 z-score
TTAGTACTGAGACTGGATTAGTGCTAG,0.482 z-score
AATTTGAGAACGGAAACCAAGTGCTAG,2.57 z-score
TTAGGTATCCTTATCCTGTAGTGCTAG,0.263 z-score
GACGGTTTCGGTCTCTGGACGTGCTAG,9.7 z-score
GACGATTTCTGGACTGGAGACGTGCTA,0.237 z-score
GACGGTTTCCTAATCCTGACGTGCTAG,2.42 z-score
GATGGTCTCGGTTTCGGGACGTGCTAG,8.5 z-score
GACGGTCTCCATTTCCTGACGTGCTAG,1.6 z-score
GACGAACTGCGGTATCGAGACGTGCTA,-0.294 z-score
TCACGTATATTCCCTAGAACTGTGCTA,0.659 z-score
TTATGTCTCCTTCTCCTTTAGTGCTAG,0.589 z-score
TTAGGTTCCGGTTTCGGTTTGTGCTAG,13.7 z-score
TTACGTCTCGGTTTCGGTTAGTGCTAG,9.29 z-score
TTAGATTCCCTTTTCCTTTAGTGCTAG,3.61 z-score
TTAGGTCTCCTCCTCCTTTAGTGCTAG,-0.331 z-score
TTCAATTTTTGCATCGTAAGGTGCTAG,0.0952 z-score
GGCGGTCTCCTTTTCCTGACGTGCTAG,1.05 z-score
TTAGGTCTCCTTCTCCTTAAGTGCTAG,0.699 z-score

# Series 4
# Target: Phosphate system positive regulatory protein PHO4, full length, GST-tagged (PHO4, Saccharomyces cerevisiae, UniProt P07270, residues 1-312)
# Method: competition protein-binding microarray
# Molecule type: double-stranded DNA, one strand shown
# Medium: in vitro
# Concentration: 2 µM
# Notes: whole 60-bp probe, lowest competitor level
# With: Cbf1 competitor, 0.05 µM
# Direction: higher = stronger binding
# All sequences stand within: … GTCTTGATTCGCTTGACGCTGCTG
# Construct (chain): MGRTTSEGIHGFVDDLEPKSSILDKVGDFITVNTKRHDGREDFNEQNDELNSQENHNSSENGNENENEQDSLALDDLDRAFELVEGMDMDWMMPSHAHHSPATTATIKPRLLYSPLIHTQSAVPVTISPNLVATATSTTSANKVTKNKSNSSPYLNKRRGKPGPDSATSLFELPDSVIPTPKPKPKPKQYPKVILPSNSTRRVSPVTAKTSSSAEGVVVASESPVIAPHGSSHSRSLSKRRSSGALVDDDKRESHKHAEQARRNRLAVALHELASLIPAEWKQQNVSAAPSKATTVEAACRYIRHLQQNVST
Strand,fluorescence intensity [a.u.]
GACATTGCCCTGAGCATCGTGCAAATGGGGGACACT,8480
TGCGCAACAACTTTTCACGTGACGTTATGTCTAGAA,11300
TGCGCAACAACTTTTCACGTGCGTTTATGTCTAGAA,16100
ACTCAAAAGCGTACTCACGTTTTGAAGAAGAACCCA,10300
CGCTCGTCTTGGTGGCATGCGCTTTTTTTTTCTTGG,7900
AAATTACTAAGTTGTCTCGTGGGTGACGCCGTATGA,9420
GGTAAGAAAAACCGACGCGTGGCCGACATCGAGTAG,9540
TTGCCGCAGAAGAGTCACGTGATGGGCACTCTTACT,11700
CTTTCCCGATCTTGCTTCGTGGGTGTAGCACATTTG,7080
AAGACTTAACGATACCACGTGTACAAAGCACTGAAT,18000
TCAACACTGTACTGTCACATGCTAATAAAGATAACA,11500
CTAACGAAGGTTTGTACGGTGGGTGACAAGCCAAGT,3790
CTGGGACATATTCAGTTCGTGCCAGTTTTTAAAGGG,7280
GTCTTGTCTCATTGTCACGTTACTTTCCCCACTTCA,7510
TCTCTCATTATTCCCACCGTGTCCTCAATCTCTTGT,6000
AAATTACTAAGTTGCCCCGTGGGTGACGCCGTATGA,9930
AAAAGTAACCATAGTCTCGTGCTAATTCGGTACTAT,9570
CTAACGAAGGTTTTTCACGTGATCTACAAGCCAAGT,12400

# A few entries again (series 3):
Strand,log fluorescence
TGAGGTATCCTTATCCTTTAGTGCTAG,-0.124 z-score
TTAGTACTGAGACTGGATTAGTGCTAG,0.482 z-score
AATTTGAGAACGGAAACCAAGTGCTAG,2.57 z-score
TTAGGTATCCTTATCCTGTAGTGCTAG,0.263 z-score
GACGGTTTCGGTCTCTGGACGTGCTAG,9.7 z-score
GACGATTTCTGGACTGGAGACGTGCTA,0.237 z-score
GACGGTTTCCTAATCCTGACGTGCTAG,2.42 z-score
GATGGTCTCGGTTTCGGGACGTGCTAG,8.5 z-score
GACGGTCTCCATTTCCTGACGTGCTAG,1.6 z-score
GACGAACTGCGGTATCGAGACGTGCTA,-0.294 z-score
